Assay results of several laboratories.
Every numbered part comes from another study and shows a few of its results, in no order. Several values in a cell are separate wells, animals, samples, runs or records.
Sequence of UniProt O24410 (whole entry, looked up): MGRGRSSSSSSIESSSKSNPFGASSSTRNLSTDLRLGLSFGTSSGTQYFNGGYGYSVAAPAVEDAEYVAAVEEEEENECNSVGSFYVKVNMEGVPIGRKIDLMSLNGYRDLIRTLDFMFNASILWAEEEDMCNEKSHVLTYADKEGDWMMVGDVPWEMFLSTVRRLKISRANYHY
Sequence of UniProt Q8RYC6 (whole entry, looked up): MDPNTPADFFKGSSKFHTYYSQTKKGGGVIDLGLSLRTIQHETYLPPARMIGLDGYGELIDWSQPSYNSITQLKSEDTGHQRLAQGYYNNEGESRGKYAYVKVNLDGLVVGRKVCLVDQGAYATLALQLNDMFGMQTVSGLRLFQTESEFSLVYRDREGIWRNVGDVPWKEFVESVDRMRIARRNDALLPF
Sequence of UniProt Q9XID4 (whole entry, looked up): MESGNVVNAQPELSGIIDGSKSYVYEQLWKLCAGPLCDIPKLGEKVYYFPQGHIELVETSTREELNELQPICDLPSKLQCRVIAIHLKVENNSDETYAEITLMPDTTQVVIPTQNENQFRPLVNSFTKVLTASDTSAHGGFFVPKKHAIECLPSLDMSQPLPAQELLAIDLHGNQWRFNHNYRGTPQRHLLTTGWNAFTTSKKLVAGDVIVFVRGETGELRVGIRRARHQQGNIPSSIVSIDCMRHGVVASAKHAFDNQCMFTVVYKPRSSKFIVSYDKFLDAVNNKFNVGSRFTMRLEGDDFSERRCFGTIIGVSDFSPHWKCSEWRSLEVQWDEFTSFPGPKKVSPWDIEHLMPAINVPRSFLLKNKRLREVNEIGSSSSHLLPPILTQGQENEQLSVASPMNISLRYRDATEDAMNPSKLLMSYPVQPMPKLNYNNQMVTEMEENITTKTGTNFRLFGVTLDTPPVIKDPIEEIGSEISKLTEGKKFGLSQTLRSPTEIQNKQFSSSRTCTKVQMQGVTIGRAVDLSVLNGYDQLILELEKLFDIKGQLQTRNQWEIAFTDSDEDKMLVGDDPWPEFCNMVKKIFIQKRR
Sequence of UniProt P33078 (whole entry, looked up): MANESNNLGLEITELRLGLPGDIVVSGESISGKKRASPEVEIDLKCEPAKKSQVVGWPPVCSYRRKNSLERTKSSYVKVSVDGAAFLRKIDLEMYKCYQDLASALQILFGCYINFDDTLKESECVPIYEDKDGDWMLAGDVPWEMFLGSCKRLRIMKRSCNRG
Sequence of UniProt O23661 (whole entry, looked up): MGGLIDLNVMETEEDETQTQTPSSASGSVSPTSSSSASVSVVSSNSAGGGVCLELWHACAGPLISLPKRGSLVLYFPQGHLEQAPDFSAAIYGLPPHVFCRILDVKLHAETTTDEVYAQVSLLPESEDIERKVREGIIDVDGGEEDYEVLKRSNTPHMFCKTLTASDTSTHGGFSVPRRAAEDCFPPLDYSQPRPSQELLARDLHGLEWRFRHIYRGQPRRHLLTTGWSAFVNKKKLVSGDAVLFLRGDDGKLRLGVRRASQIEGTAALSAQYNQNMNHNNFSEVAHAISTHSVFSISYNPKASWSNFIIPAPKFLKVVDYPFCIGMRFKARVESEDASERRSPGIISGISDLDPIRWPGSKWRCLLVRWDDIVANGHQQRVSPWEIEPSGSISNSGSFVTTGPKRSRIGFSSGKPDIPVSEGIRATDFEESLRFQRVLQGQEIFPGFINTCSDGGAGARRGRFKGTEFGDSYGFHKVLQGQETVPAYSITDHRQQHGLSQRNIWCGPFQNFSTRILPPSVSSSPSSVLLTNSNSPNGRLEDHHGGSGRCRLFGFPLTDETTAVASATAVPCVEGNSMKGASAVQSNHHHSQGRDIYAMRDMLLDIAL

Sample 1 — technique: aptamer microarray, sandwich; molecule type: DNA with 2'F-ANA; matrix: in vitro; tested at: 200 nM; together with: Cy3 exosite-II aptamer, 400 nM; reading: higher = stronger binding; strand: GGTTGGTGTGGTTGG
Target: Prothrombin, mature alpha-thrombin (F2, Homo sapiens, UniProt P00734)
Notes: whole 15-mer aptamer, many near background
| Modification | mean fluorescence intensity [a.u.] |
| --- | --- |
| 2'F-ANA at 3 5 6 8 14 | 57.3 |
| 2'F-ANA at 1 2 4 5 7 9 15 | 98.3 |
| 2'F-ANA at 2 3 4 6 7 10 11 12 13 14 15 | 122 |
| 2'F-ANA at 2 3 4 6 10 11 13 14 15 | 124 |
| 2'F-ANA at 2 5 7 8 11 13 | 57.3 |
| 2'F-ANA at 3 4 5 6 7 9 10 12 13 15 | 54.5 |
| 2'F-ANA at 4 5 7 8 9 10 11 12 13 | 47.8 |
| 2'F-ANA at 1 3 4 5 10 11 12 13 14 15 | 46.6 |

Sample 2 — technique: RNA Bind-n-Seq; molecule type: RNA; matrix: in vitro; tested at: 1 µM; notes: whole 134-nt RNA, ends assumed; together with: 150 mM KCl; reference: input library; reading: higher = stronger binding
Target: Ras GTPase-activating protein-binding protein 1, C-terminal RGG region (G3BP1, Homo sapiens, UniProt Q13283)
Sequence of UniProt Q13283 (whole entry, looked up): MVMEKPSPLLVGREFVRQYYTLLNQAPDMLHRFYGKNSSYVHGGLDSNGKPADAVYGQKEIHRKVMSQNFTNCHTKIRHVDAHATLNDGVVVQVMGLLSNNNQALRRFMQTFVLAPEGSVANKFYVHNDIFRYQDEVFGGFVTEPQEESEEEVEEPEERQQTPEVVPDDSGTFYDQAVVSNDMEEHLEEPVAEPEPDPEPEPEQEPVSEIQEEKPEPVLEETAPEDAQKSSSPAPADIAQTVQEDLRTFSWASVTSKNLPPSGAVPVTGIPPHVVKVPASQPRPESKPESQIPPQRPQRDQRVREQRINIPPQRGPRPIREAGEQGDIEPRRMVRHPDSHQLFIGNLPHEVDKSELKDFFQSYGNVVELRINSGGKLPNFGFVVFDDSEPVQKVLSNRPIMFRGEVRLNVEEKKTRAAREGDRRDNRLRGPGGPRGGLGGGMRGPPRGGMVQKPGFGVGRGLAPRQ
All sequences stand within: GGGAGUUCUACAGUCCGACGAUC … UGGAAUUCUCGGGUGUCAAGG
| Strand | log2 enrichment |
| --- | --- |
| ACCAUGCAGGUGAGCAUCUUUGGGAAGUGGGGCAAGGGGGGGAUAGGGAGGGGGGUAACACUUUGGGAACAGGUGGUCCCAGGUCGUUUC | -1.39 |
| CUCAAGUCCUGUGCUACACAUCGUAUGUACCGAAUCGGCCGGGGCCGGGCCGGAAAGUAUUAUGUUACGCCGUUCGGAUCUGCACUUCCA | -1.02 |
| CUCAAGUCCUGUGCUACACAUCGUAUGUACCGAAUCGGAAAGGAGGUUUUUGGAAAGUAUUAUGUUACGCCGUUCGGAUCUGCACUUCCA | -1.23 |
| AGUCCUGUGCUACACAUCGUAUGUACCGAAUCGGUUUUUUUGGAAAAAAAGGUUUGGAAAGUAUUAUGUUACGCCGUUCGGAUCUGCACU | -2.57 |
| UGGGAGGUGGAUUUUGUUUAUUUUUUUAGCUCAUUUCCAGGGGUGGGAAUUUUUUUUUAAUAUGUGUCAUCAAUAAAGUUGUUUUUGAAA | 3.37 |
| CCUGUGCUACACAUCGUAUGUACCGAAUCGGGUUUUUUUGGGUUUUUUUGGUUUUUUUGGAAAGUAUUAUGUUACGCCGUUCGGAUCUGC | -1.18 |
| AGUCCUGUGCUACACAUCGUAUGUACCGAAUCGGUUUUUGGAAAAAGGAAAAAAAGGAAAGUAUUAUGUUACGCCGUUCGGAUCUGCACU | -2 |
| CCUCAAGUCCUGUGCUACACAUCGUAUGUACCGAAUCGGAAGGAAGGGAAGGAAAGUAUUAUGUUACGCCGUUCGGAUCUGCACUUCCAG | -0.837 |

Sample 3 — read-out: peptide-MHC binding; molecule type: peptide; tested at: concentration not given
Target: HLA class I histocompatibility antigen, A alpha chain, allele A*26:03 (Homo sapiens, UniProt P04439)
| Molecule | binding |
| --- | --- |
| LLRRRPYPL | inactive |
| GTIIAHGGL | inactive |
| DIKDTKEAL | inactive |
| RVYKNYDPR | inactive |
| RENQVAVVR | inactive |
| STFAASGPF | inactive |
| ISDPLTSGL | inactive |
| YISPIFIPM | active |
| SYLKPHIFE | inactive |
| IYTTNDNNY | inactive |
| FENDIDEIL | inactive |
| WQFAIHYSF | inactive |
| EELKSLYNTV | inactive |
| IFLIITKVF | inactive |
| RHDITGFIL | inactive |
| NYFNRMFHF | inactive |
| RVFDKADGK | inactive |
| IYCGFKFAW | inactive |

Sample 4 — Molecule: B1 (IAA1); technique: two-hybrid; reading: higher = firmer interaction
B1: IAA1 (Arabidopsis thaliana, UniProt P49677); chain MEVTNGLNLKDTELRLGLPGAQEEQQLELSCVRSNNKRKNNDSTEESAPPPAKTQIVGWPPVRSNRKNNNNKNVSYVKVSMDGAPYLRKIDLKMYKNYPELLKALENMFKFTVGEYSEREGYKGSGFVPTYEDKDGDWMLVGDVPWDMFSSSCQKLRIMKGSEAPTAL
| partner | setting | how to read | positive tests |
| --- | --- | --- | --- |
| IAA32 (Arabidopsis thaliana, UniProt Q8RYC6) | – | reference: out of 4 tests | 0 |
| IAA20 (Arabidopsis thaliana, UniProt O24410) | weak activation fusion | reference: out of 4 tests | 1 |
| ETT (Arabidopsis thaliana, UniProt O23661) | – | reference: out of 2 tests | 0 |
| ARF12 500-593 (Arabidopsis thaliana, UniProt Q9XID4) | – | reference: out of 4 tests | 1 |
| IAA17 (Arabidopsis thaliana, UniProt P93830) | – | reference: out of 4 tests | 4 |
| IAA5 (Arabidopsis thaliana, UniProt P33078) | – | reference: out of 4 tests | 3 |

Other studies, line by line
| Structure (SMILES) | cell line | test | setting | how to read | quantity | value |
| --- | --- | --- | --- | --- | --- | --- |
| CNC(=N)NCCC[C@H](NC(=O)[C@H](CC(C)C)NC(=O)NNC(=O)[C@H](Cc1ccccc1)NC(=O)[C@H](CO)NC(=O)[C@H](CC(N)=O)NC(=O)[C@@H](Cc1cccnc1)NC(=O)[C@H](N)Cc1ccc(O)cc1)C(=O)NCC(N)=O | normal-adjacent epithelium patient-derived organoids sample G | CellTiter-Glo | 0.1 µM | reference: DMSO | viability | 96.1% and 132% |

Excerpt of the above (sample 4):
| partner | setting | how to read | positive tests |
| --- | --- | --- | --- |
| IAA5 (Arabidopsis thaliana, UniProt P33078) | – | reference: out of 4 tests | 3 |
| IAA32 (Arabidopsis thaliana, UniProt Q8RYC6) | – | reference: out of 4 tests | 0 |
| ETT (Arabidopsis thaliana, UniProt O23661) | – | reference: out of 2 tests | 0 |
